{"data": "Experimental data pooled from the literature", "note": "Parts stem from different laboratories: compare values within a part only. Positions count from the first letter of the parent shown.", "sequence of UniProt Q06187 (whole entry, looked up)": "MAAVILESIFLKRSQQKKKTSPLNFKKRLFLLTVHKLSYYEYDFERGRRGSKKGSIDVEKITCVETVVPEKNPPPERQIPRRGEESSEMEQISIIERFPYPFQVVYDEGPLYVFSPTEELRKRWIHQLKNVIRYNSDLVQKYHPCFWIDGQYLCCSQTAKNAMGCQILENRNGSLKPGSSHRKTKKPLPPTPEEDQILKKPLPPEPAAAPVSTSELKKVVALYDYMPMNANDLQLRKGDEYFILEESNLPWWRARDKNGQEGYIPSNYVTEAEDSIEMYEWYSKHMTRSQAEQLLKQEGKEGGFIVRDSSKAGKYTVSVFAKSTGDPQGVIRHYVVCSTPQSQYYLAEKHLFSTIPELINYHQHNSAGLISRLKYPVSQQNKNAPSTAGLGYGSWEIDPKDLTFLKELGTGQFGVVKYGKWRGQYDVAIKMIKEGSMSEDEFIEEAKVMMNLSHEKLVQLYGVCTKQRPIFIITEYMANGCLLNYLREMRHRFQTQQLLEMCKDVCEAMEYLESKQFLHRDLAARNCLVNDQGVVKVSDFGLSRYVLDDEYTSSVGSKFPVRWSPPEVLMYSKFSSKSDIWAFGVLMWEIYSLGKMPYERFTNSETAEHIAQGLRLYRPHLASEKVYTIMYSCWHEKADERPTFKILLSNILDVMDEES", "sequence of UniProt P24723 (whole entry, looked up)": "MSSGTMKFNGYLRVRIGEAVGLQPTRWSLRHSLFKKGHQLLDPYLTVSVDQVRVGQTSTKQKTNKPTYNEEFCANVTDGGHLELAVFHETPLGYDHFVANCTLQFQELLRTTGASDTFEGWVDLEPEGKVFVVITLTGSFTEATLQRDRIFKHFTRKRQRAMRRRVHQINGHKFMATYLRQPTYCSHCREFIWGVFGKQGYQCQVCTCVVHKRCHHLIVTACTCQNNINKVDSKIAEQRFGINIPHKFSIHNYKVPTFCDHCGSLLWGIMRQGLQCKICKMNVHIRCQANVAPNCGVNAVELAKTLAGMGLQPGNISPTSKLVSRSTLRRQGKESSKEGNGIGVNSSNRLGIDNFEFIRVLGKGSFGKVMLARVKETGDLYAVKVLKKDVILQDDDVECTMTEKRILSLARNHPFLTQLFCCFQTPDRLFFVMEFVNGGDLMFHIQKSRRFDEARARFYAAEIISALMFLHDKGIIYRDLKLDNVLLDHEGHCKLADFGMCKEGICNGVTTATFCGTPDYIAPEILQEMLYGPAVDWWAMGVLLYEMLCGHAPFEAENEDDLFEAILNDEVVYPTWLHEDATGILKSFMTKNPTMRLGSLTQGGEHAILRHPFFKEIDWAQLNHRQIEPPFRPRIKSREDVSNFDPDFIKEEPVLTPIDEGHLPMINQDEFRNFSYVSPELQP", "sequence of UniProt P53778 (whole entry, looked up)": "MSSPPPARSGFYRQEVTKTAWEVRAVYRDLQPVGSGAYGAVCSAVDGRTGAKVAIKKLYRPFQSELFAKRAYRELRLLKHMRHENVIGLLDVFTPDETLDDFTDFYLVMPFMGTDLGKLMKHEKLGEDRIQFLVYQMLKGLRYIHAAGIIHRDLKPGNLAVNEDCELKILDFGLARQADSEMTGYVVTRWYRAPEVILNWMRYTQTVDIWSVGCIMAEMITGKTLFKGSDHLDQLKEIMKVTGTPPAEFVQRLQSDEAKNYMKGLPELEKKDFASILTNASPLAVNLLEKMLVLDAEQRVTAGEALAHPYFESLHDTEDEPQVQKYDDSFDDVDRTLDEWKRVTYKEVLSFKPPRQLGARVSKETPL", "sequence of UniProt Q96PN8 (whole entry, looked up)": "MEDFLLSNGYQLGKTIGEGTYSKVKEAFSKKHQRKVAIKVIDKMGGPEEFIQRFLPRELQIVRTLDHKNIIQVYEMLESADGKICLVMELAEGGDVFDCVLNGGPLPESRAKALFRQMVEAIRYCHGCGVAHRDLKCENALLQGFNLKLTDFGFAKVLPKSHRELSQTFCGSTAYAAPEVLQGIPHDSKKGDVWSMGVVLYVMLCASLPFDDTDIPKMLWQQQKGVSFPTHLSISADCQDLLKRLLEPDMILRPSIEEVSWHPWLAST", "sequence of UniProt O00506 (whole entry, looked up)": "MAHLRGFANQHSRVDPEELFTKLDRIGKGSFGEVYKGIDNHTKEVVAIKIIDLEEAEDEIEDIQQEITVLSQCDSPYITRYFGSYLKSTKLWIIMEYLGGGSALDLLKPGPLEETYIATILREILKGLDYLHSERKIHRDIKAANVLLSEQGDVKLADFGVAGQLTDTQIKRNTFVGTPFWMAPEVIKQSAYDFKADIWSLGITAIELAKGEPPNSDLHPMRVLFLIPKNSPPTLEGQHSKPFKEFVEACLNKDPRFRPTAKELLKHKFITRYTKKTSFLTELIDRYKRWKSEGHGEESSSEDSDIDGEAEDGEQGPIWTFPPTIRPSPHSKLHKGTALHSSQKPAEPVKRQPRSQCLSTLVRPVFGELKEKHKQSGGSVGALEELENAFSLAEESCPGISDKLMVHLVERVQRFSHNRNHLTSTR"}
{"data": "Set 1", "target": "Ribosomal protein S6 kinase alpha-1 (RPS6KA1, Homo sapiens, UniProt Q15418)", "read-out": "enzyme activity", "mode": "inhibitor", "tested at": "0.5 µM", "baseline": "control", "sequence of UniProt Q15418 (whole entry, looked up)": "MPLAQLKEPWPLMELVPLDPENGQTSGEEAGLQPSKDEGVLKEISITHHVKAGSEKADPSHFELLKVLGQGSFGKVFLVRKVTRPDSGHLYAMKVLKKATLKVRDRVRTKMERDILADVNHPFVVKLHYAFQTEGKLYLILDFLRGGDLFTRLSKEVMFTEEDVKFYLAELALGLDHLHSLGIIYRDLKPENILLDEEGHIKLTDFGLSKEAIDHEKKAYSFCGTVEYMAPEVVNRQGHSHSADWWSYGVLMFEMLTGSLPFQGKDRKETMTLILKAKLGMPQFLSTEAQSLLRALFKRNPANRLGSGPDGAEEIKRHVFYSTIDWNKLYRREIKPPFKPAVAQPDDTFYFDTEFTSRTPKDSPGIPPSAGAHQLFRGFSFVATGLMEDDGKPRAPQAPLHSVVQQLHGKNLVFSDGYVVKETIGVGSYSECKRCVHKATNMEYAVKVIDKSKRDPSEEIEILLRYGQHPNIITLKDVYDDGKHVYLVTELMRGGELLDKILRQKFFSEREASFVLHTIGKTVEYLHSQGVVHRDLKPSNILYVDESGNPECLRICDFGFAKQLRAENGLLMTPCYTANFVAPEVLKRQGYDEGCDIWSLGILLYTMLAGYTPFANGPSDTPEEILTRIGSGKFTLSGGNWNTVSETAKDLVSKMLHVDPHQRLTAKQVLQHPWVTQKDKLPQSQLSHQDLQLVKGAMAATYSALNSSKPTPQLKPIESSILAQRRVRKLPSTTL"}
{"Compound": "O=C1NC(=O)C(c2cn(CCCn3ccnc3)c3ccccc23)=C1Nc1ccccc1", "remaining activity [%]": 7.54}
{"Compound": "COc1ccc(OC)c2c(=S)c3ccccc3[nH]c12", "remaining activity [%]": 94.6}
{"Compound": "Nc1[nH]nc2nc3ccccc3nc12", "remaining activity [%]": 97.9}
{"Compound": "COc1ccc(C(=O)Nc2sc3c(c2C(N)=O)CCCC3)cc1OC", "remaining activity [%]": 87}
{"Compound": "Cn1sc(=O)n(Cc2ccccc2)c1=O", "remaining activity [%]": 97.6}
{"Compound": "O=C(CCCc1ccc(-c2ccccc2F)cc1)Nc1ccc(O)cc1", "remaining activity [%]": 102}
{"Compound": "COc1ccc(CNC(=O)Nc2ncc([N+](=O)[O-])s2)cc1", "remaining activity [%]": 96.3}
{"Compound": "OCC(O)CCON=C1C(c2c(O)[nH]c3ccccc23)=Nc2ccccc21 (stereo not shown)", "remaining activity [%]": 8.85}
{"Compound": "N#CC(C#N)=C(N)/C(C#N)=C/c1ccc(O)cc1", "remaining activity [%]": 93.8}
{"Compound": "Oc1ccc(-c2nc(-c3ccncc3)c(-c3ccc(F)cc3)[nH]2)cc1", "remaining activity [%]": 98.1}
{"Compound": "CCOC(=O)c1c(C)[nH]c(/C=C2\\C(=O)Nc3ccccc32)c1C", "remaining activity [%]": 77.6}
{"Compound": "Cc1cccc(-c2[nH]c(C(C)(C)C)nc2-c2ccc3c(c2)OCO3)n1", "remaining activity [%]": 96.4}
{"data": "Set 2", "target": "Prothrombin, mature alpha-thrombin (F2, Homo sapiens, UniProt P00734)", "technique": "aptamer microarray, sandwich", "molecule type": "DNA with 2'F-ANA", "medium": "in vitro", "tested at": "200 nM", "setting": "whole 15-mer aptamer, many near background", "with": "Cy3 exosite-II aptamer, 400 nM", "reading": "higher = stronger binding", "sequence": "GGTTGGTGTGGTTGG"}
{"Modification": "2'F-ANA at 1 2 3 4 5 7 8 9 10 13", "mean fluorescence intensity [a.u.]": 48.9}
{"Modification": "2'F-ANA at 1 2 3 6 8 10 12 15", "mean fluorescence intensity [a.u.]": 88}
{"Modification": "2'F-ANA at 1 6 7 8 10 11 14", "mean fluorescence intensity [a.u.]": 62.5}
{"Modification": "2'F-ANA at 3 4 5 8 9 11 14", "mean fluorescence intensity [a.u.]": 56.7}
{"Modification": "2'F-ANA at 2 4 5 10 11 12 14", "mean fluorescence intensity [a.u.]": 45.9}
{"Modification": "2'F-ANA at 1 2 5 7 9 11 12 13 14", "mean fluorescence intensity [a.u.]": 50.1}
{"Modification": "2'F-ANA at 4 5 7 8 9 12 13", "mean fluorescence intensity [a.u.]": 98.1}
{"Modification": "2'F-ANA at 1 3 4 5 7 8 11 12 13", "mean fluorescence intensity [a.u.]": 75.9}
{"data": "Set 3", "target": "ABI1, truncated, D143A, DHFR fusion (Arabidopsis thaliana)", "technique": "DHFR PCA, deep sequencing", "medium": "yeast", "setting": "methotrexate growth selection, single substitutions", "with": "(+)-ABA 0.032 µM", "baseline": "wild-type fitted maximum", "reading": "higher = stronger binding", "starting sequence": "PYL1, truncated, DHFR fusion (Arabidopsis thaliana); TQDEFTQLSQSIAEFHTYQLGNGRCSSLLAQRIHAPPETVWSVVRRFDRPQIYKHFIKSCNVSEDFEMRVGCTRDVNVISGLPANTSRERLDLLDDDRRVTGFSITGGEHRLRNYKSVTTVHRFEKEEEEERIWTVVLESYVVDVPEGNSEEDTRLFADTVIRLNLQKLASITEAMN; partner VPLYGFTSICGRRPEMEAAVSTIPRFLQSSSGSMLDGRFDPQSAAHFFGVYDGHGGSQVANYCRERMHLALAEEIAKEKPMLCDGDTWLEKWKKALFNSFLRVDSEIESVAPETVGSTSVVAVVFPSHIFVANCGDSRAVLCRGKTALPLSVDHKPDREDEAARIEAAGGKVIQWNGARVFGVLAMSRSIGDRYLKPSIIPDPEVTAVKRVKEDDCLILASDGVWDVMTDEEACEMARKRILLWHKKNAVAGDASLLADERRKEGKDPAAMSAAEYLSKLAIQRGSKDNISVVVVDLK"}
{"Substitution": "S27E", "relative binding score [%]": -1.17}
{"Substitution": "Y53M", "relative binding score [%]": -6.89}
{"Substitution": "F157V", "relative binding score [%]": 9.18}
{"Substitution": "G107D", "relative binding score [%]": 19.6}
{"Substitution": "G81A", "relative binding score [%]": 9.57}
{"Substitution": "D144I", "relative binding score [%]": -4.09}
{"Substitution": "T154L", "relative binding score [%]": -4.86}
{"Substitution": "Y18D", "relative binding score [%]": -0.466}
{"data": "Set 4", "Compound": "CN([C@@H]1CCc2c(CC(=O)O)c3ccccc3n2C1)S(=O)(=O)c1ccc(F)cc1", "read-out": "cell-free assay", "technique": "competition with immobilised ligand", "tested at": "1 µM"}
{"target": "PRKCH (Homo sapiens, UniProt P24723)", "remaining binding": "100%"}
{"target": "STK25 (Homo sapiens, UniProt O00506)", "remaining binding": "99%"}
{"target": "BTK (Homo sapiens, UniProt Q06187)", "remaining binding": "86%"}
{"target": "Ribosomal protein S6 kinase alpha-1, C-terminal kinase domain (RPS6KA1, Homo sapiens, UniProt Q15418)", "remaining binding": "100%"}
{"target": "MAPK12 (Homo sapiens, UniProt P53778)", "remaining binding": "94%"}
{"target": "TSSK3 (Homo sapiens, UniProt Q96PN8)", "remaining binding": "100%"}
{"note": "Some of these lines once more (set 1):"}
{"Compound": "COc1ccc(CNC(=O)Nc2ncc([N+](=O)[O-])s2)cc1", "remaining activity [%]": 96.3}
{"Compound": "OCC(O)CCON=C1C(c2c(O)[nH]c3ccccc23)=Nc2ccccc21 (stereo not shown)", "remaining activity [%]": 8.85}
{"Compound": "N#CC(C#N)=C(N)/C(C#N)=C/c1ccc(O)cc1", "remaining activity [%]": 93.8}
{"Compound": "Oc1ccc(-c2nc(-c3ccncc3)c(-c3ccc(F)cc3)[nH]2)cc1", "remaining activity [%]": 98.1}
{"Compound": "CCOC(=O)c1c(C)[nH]c(/C=C2\\C(=O)Nc3ccccc32)c1C", "remaining activity [%]": 77.6}
{"Compound": "Cc1cccc(-c2[nH]c(C(C)(C)C)nc2-c2ccc3c(c2)OCO3)n1", "remaining activity [%]": 96.4}
